Measurements of several laboratories.
Parts stem from different laboratories: compare values within a part only. “And” joins repeats or separate records; there may be more than shown.
Chain of UniProt P9WI81 (whole entry, looked up): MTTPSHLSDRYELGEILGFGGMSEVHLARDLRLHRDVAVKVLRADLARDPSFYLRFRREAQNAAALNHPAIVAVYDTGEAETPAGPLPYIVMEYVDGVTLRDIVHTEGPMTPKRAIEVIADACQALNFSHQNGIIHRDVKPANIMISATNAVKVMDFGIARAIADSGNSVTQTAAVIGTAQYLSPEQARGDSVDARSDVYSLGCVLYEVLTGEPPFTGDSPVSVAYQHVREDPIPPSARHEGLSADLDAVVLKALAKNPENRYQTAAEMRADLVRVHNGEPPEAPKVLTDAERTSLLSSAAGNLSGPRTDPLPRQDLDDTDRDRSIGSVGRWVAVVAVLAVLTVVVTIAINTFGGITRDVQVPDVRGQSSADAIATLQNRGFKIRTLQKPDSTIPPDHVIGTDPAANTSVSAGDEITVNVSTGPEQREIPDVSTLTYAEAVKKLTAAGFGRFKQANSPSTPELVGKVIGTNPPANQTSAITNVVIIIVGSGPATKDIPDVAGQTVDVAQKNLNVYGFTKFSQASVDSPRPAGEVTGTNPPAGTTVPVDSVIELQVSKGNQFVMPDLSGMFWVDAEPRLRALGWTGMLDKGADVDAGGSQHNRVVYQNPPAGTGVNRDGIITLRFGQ
Chain of UniProt P62344 (whole entry, looked up): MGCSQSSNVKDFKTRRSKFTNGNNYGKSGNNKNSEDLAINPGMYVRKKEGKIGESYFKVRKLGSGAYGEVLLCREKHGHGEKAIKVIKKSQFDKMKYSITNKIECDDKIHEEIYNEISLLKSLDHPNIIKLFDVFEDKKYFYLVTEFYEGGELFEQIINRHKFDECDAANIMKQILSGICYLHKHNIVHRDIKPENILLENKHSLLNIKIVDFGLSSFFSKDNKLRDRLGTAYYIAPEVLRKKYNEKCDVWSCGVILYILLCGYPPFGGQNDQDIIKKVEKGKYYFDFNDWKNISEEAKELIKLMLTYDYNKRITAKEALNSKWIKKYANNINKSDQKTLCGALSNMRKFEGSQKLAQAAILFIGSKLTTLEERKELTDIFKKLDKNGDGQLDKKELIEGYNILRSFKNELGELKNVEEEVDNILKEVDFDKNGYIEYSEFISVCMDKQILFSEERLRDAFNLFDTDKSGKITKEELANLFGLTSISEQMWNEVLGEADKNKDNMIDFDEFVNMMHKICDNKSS
Chain of UniProt P61075 (whole entry, looked up): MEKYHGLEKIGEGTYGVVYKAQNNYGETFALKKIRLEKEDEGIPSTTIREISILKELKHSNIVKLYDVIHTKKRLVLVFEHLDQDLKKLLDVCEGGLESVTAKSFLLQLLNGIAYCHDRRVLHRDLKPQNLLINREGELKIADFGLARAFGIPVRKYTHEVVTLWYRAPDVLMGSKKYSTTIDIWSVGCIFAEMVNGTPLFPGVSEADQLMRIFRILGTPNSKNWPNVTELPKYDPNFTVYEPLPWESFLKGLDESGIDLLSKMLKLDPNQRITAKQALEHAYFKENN
Chain of UniProt P28566 (whole entry, looked up): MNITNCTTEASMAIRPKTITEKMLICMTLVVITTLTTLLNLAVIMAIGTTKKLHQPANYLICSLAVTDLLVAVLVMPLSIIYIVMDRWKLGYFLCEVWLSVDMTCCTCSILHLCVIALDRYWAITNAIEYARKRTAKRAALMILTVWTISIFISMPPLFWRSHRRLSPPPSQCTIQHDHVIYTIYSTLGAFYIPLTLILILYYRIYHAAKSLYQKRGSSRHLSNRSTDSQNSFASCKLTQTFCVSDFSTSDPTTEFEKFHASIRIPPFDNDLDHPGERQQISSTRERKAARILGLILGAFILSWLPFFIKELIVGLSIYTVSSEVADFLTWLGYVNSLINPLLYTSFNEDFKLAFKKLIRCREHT

Series 1
Organism: Sarcocystis neurona
Observed: parasite growth
Tested at: 10 µM
Time: 96 h
Setting: first screen
Baseline: untreated
| SMILES | log2 fold change |
| --- | --- |
| CN1CCN(C(=O)O[C@H]2c3nccnc3C(=O)N2c2ccc(Cl)cn2)CC1 | 0.18 |
| FC(F)(F)c1cccc(N2CCNCC2)c1 | -0.22 |
| OCCN1CCN(CCCN2c3ccccc3Sc3ccc(Cl)cc32)CC1 | -4.34 |
| C[C@H]1[C@H](OC(=O)CCC(=O)O)O[C@@H]2O[C@@]3(C)CC[C@H]4[C@H](C)CC[C@@H]1[C@@]24OO3 | -3.67 |
| c1ccc2c(c1)Nc1ccccc1S2 | 0.23 |
| C[C@]12CC[C@H](O)CC1=CC[C@@H]1[C@@H]2CC[C@@]2(C)[C@H]1CC[C@]2(C)O | 0.024 |
| CN1C(=O)COc2c(C(=O)NC3CN4CCC3CC4)cc(Cl)cc21 (centres unmarked) | 0.0743 |

Series 2
Cell line: mouse MPNST tumor cells
Method: high-content nuclear imaging
Measured: cell number
Tested at: 10 µM
Time: 12 h
Setting: mean of 2 replicates
Baseline: plate mean
Direction: higher = more cells
| Structure (SMILES) | nuclei count |
| --- | --- |
| O=c1[nH]oc2c1CCNC2 | 1.99 z-score and 1.86 z-score |
| CN(C)NC(=O)CCC(=O)O | 2.12 z-score |
| C[N+](C)(C)CCCCCCCCCC[N+](C)(C)C | 0.902 z-score |
| CC(=O)OC1CN2CCC1CC2 (centres unmarked) | 0.585 z-score |
| O=S(=O)(c1ccccc1F)N1CCOc2c(N3CCNCC3)cccc21 | 3.56 z-score |
| CN1C(=O)CCS(=O)(=O)C1c1ccc(Cl)cc1 (centres unmarked) | 1.13 z-score and 0.909 z-score and 1.22 z-score |
| CC(C)=CCCN1CCC(NC(=O)[C@](O)(c2ccccc2)C2CCCC2)CC1 | 0.738 z-score |
| O=C(c1ccc(-c2cccc(C(F)(F)F)c2)o1)N1CCN2CCC1CC2 | 2.31 z-score |
| CC(=O)Nc1ccc(Cc2ccc(NC(C)=O)cc2)cc1 | 3.36 z-score |

Series 3
SMILES: CC(=O)N[C@@H](Cc1c[nH]c2ccccc12)C(=O)N[C@@H](CCC(=O)C=[N+]=[N-])C(=O)OC(C)C
Species: C57BL/6 CES1-/- mouse, both sexes
| dose | time | body weight |
| --- | --- | --- |
| 0.3 mg/kg | day 10 | 104% and 96.4% and 100% and 95.7% |
| 0.3 mg/kg | day 11 | 100% and 92.9% and 95.7% |
| 1 mg/kg | day 8 | 95.5% and 100% and 93.9% |
| 0.3 mg/kg | day 17 | 100% and 96.4% and 95.7% and 104% |
| 0.3 mg/kg | day 8 | 100% |
| 0.1 mg/kg | day 11 | 96.2% and 109% and 100% and 96.6% and 105% |

Other studies, line by line
| SMILES | target | observed | method | tested at | endpoint | result |
| --- | --- | --- | --- | --- | --- | --- |
| CCS(=O)(=O)c1cc2cc(C[C@@](O)(CC(C)(C)c3ccc(F)cc3C(N)=O)C(F)(F)F)[nH]c2cn1 | pknB (Mycobacterium tuberculosis, UniProt P9WI81) | cell-free assay | competition with immobilised ligand | 1 µM | remaining binding | 84% |
| N#CC1(c2ccccn2)CCN(Cc2cc(C(=O)N3CCCC3)c(=O)n3ccccc23)CC1 | CRK2 (Plasmodium falciparum, UniProt P61075) | cell-free assay | competition with immobilised ligand | 1 µM | remaining binding | 100% |
| CNC(=N)NCCC[C@H](NC(=O)[C@H](CC(C)C)NC(=O)NNC(=O)[C@H](Cc1ccccc1)NC(=O)[C@H](CO)NC(=O)[C@H](CC(N)=O)NC(=O)[C@@H](Cc1ccncc1)NC(=O)[C@H](N)Cc1ccc(O)cc1)C(=O)N[C@@H](Cc1ccccc1)C(N)=O | HTR1E (Homo sapiens, UniProt P28566) | ligand displacement | radioligand | 10 µM | inhibition | 24.1% |
| O=C(NCCCC1CCCCC1)c1ccc(CNC(=O)c2cnn(-c3ccccc3)c2C(F)(F)F)cc1 | CDPK1 (Plasmodium falciparum, UniProt P62344) | cell-free assay | competition with immobilised ligand | 0.1 µM | remaining binding | 100% |

Some of these lines once more (other studies, line by line):
| SMILES | target | observed | method | tested at | endpoint | result |
| --- | --- | --- | --- | --- | --- | --- |
| N#CC1(c2ccccn2)CCN(Cc2cc(C(=O)N3CCCC3)c(=O)n3ccccc23)CC1 | CRK2 (Plasmodium falciparum, UniProt P61075) | cell-free assay | competition with immobilised ligand | 1 µM | remaining binding | 100% |
| CCS(=O)(=O)c1cc2cc(C[C@@](O)(CC(C)(C)c3ccc(F)cc3C(N)=O)C(F)(F)F)[nH]c2cn1 | pknB (Mycobacterium tuberculosis, UniProt P9WI81) | cell-free assay | competition with immobilised ligand | 1 µM | remaining binding | 84% |
| CNC(=N)NCCC[C@H](NC(=O)[C@H](CC(C)C)NC(=O)NNC(=O)[C@H](Cc1ccccc1)NC(=O)[C@H](CO)NC(=O)[C@H](CC(N)=O)NC(=O)[C@@H](Cc1ccncc1)NC(=O)[C@H](N)Cc1ccc(O)cc1)C(=O)N[C@@H](Cc1ccccc1)C(N)=O | HTR1E (Homo sapiens, UniProt P28566) | ligand displacement | radioligand | 10 µM | inhibition | 24.1% |
